Assay results gathered from unrelated publications.
Values joined by “and” are separate records of one study, mostly repeats; a detail may differ. ± gives the spread as reported. Converted amounts (≈) assume the structure as drawn.

Compound	test	test system	setting	how to read	endpoint	result
Nc1nc2cc(-c3ccc4ncc(C(=O)N5CCOCC5)n4c3)ccc2o1	drug-related adverse events, all grades	patients with advanced solid tumours	dose not given		patients with adverse events	89%
O=C(NCCN1CCCC1)c1cc(-c2ccc(CN3CCOCC3)cc2)nc2ccc(F)cc12		NMRI mouse Plasmodium berghei-infected, blood	oral, 1.5 mg/kg, 24 h, monotherapy		concentration at 24 h	96 nM
C[C@]1(CO)Cc2ncn(-c3ccc(C#N)c(Cl)c3)c2C(=O)O1	refers to: involuntary muscle contractions	human	10 mg single dose		subjects with drug-related TEAE	0%
CCN1CCN(Cc2ccc(Nc3ncc(F)c(-c4cc(F)c5nc6n(c5c4)[C@H](C)CCC6)n3)nc2)CC1		patients with advanced solid tumours	dose not given, phase Ia monotherapy		AST increased grade ≥3	4.2%
CCN1[C@@H](C(=O)NC23CCC(C(=O)O)(CC2)CC3)[C@H](c2cccc(Cl)c2F)[C@]2(C(=O)Nc3cc(Cl)ccc32)C12CCCCC2		patients with advanced solid tumours	oral, 150 mg		grade ≥3 Neutropenia incidence	50%
COc1ncccc1-c1cnn2ccc(N3CCN(C(=O)OC(C)C)CC3)nc12		mouse nerve ligation model, plasma	oral, 10 mg/kg, 30 min after last dose, repeat dosing day 2		drug concentration	3.6 µM
Clc1ccc(-c2ccccc2)cc1		Sprague-Dawley rats, female, serum	inhalation, 23 µg/rat, 0 h after exposure		phosphorus	11 ± 3 mg/dL
COc1cc(Nc2ncc(F)c(Nc3ccc4c(n3)NC(=O)C(C)(C)O4)n2)cc(OC)c1OC		PBS	3 h, pH 7.4, 1% DMSO		solubility	1.1 µM (≈ 0.518 µg/mL)
N[C@@H]1c2ccccc2OC12CCN(c1cnc3c(N4CCCc5ncccc54)n[nH]c3n1)CC2		advanced solid tumour patients	oral, 20 mg once daily		serious TEAE grade ≥3	0%
O[C@H]1CCCN[C@@H]1CCCn1cnc2c(Cl)c(Cl)ccc21		human, UGT2B7 ND+DD phenotype, plasma	oral, 150 mg, single dose		AUC(0-12 h)	640 ng·h/mL
CC(C)[C@@H]1NC(=O)CNC(=O)[C@H](CC(N)=O)NC(=O)[C@H](CCCNC(=N)N)NC(=O)[C@H](Cc2ccc(O)cc2)NC(=O)[C@H](C(C)C)NC(=O)[C@@H](NC(=O)[C@@H](NC(=O)[C@H](CC(N)=O)NC(=O)[C@H](Cc2c[nH]c3ccccc23)NC(=O)[C@H](C)NC(=O)[C@H](Cc2ccccc2)NC(=O)CN)C(C)C)CSSC[C@@H](C(=O)N[C@@H](Cc2cnc[nH]2)C(=O)N[C@@H](CCCNC(=N)N)C(=O)N[C@@H](CCCNC(=N)N)C(=O)N[C@@H](C)C(=O)N[C@@H](CC(N)=O)C(N)=O)NC(=O)[C@H](C(C)C)NC(=O)[C@H](CCCNC(=N)N)NC1=O	HPLC	trypsin	2560 µM, 2.00 h, together with: trypsin 1 % w/v		remaining peptide	19.1% and 22.1% and 17.8%
O=C1Nc2cc3[nH]nc(-c4ccncc4)c3cc2CN1Cc1ccccc1	refers to: macular edema	patients with advanced solid tumours	intravenous, dose not given		patients with TEAE	15%
O=C(Nc1ccccc1)C1CCN(C(=O)Oc2cccnc2)CC1		healthy women	oral, 20 mg, 7 days		adverse event Dyspnoea	0%
[O-][S+]1CCc2nc(N3CCC(c4ncc(Cl)cn4)CC3)nc(NC3(CO)CCC3)c21 (stereo not drawn)	refers to: Headache	healthy male humans	36 mg single dose		adverse event incidence	16.7%
CC[C@H](C)[C@H](NC(=O)[C@H](Cc1ccccc1)NC(=O)[C@H](CCC(=O)O)NC(=O)[C@H](CCCNC(=N)N)NC(=O)[C@H](C)NC(=O)[C@H](C)NC(=O)[C@H](CCC(N)=O)NC(=O)[C@H](CCC(=O)O)NC(=O)[C@H](CCC(=O)O)NC(=O)[C@H](CC(C)C)NC(=O)[C@H](Cc1ccc(O)cc1)NC(=O)[C@H](CO)NC(=O)[C@H](CO)NC(=O)[C@@H](NC(=O)[C@H](CC(=O)O)NC(=O)[C@H](CO)NC(=O)[C@@H](NC(=O)[C@H](Cc1ccccc1)NC(=O)[C@@H](NC(=O)CNC(=O)[C@H](CCC(=O)O)NC(=O)[C@H](C)NC(=O)CCc1cnc[nH]1)[C@@H](C)O)[C@@H](C)O)C(C)C)C(=O)N[C@@H](C)C(=O)N[C@@H](Cc1c[nH]c2ccccc12)C(=O)N[C@@H](CC(C)C)C(=O)N[C@H](C(=O)N[C@@H](CCCNC(=N)N)C(=O)NCC(=O)N[C@@H](CCCNC(=N)N)C(=O)N[C@@H](CCCCNC(=O)COCCOCCNC(=O)COCCOCCNC(=O)CC[C@H](NC(=O)CCCCCCCCCCCCCCCCC(=O)O)C(=O)O)C(=O)NCC(=O)NCC(=O)N[C@@H](CO)C(=O)N[C@@H](CCCCNC(=O)[C@H](CCCCNC(=O)[C@H](CCCCNc1c(NCCCCCN(O)C(=O)CCC(=O)NCCCCCN(O)C(=O)CCC(=O)NCCCCCN(O)C(C)=O)c(=O)c1=O)Nc1c(NCCCCCN(O)C(=O)CCC(=O)NCCCCCN(O)C(=O)CCC(=O)NCCCCCN(O)C(C)=O)c(=O)c1=O)NC(=O)[C@H](CCCCNc1c(NCCCCCN(O)C(=O)CCC(=O)NCCCCCN(O)C(=O)CCC(=O)NCCCCCN(O)C(C)=O)c(=O)c1=O)Nc1c(NCCCCCN(O)C(=O)CCC(=O)NCCCCCN(O)C(=O)CCC(=O)NCCCCCN(O)C(C)=O)c(=O)c1=O)C(=O)O)C(C)C [zirconium-89 labelled]	ex vivo gamma counting	male Sprague-Dawley rats, pancreas	intravenous, 1 nmol, 24 h		tissue uptake	0.35 %ID/g
C[C@@H]1NC(=O)[C@H](CCCCNC(=O)CO/N=C/C(=O)NCCCC[C@@H]2NC(=O)[C@@H](Cc3ccccc3)NC(=O)[C@H](CC(=O)O)NC(=O)CNC(=O)[C@H](CCCNC(=N)N)NC2=O)NC(=O)CNC(=O)[C@@H]2CCCN2C(=O)[C@H](CCCCNC(=O)CO/N=C/C(=O)NCCCC[C@@H]2NC(=O)[C@@H](Cc3ccccc3)NC(=O)[C@H](CC(=O)O)NC(=O)CNC(=O)[C@H](CCCNC(=N)N)NC2=O)NC(=O)[C@H](CCCCNC(=O)[C@H](CCCCN)NC(=O)[C@H](Cc2ccccc2)NC(=O)CNC(=O)CN2CCCNCCNCCCNCC2)NC(=O)[C@H](CCCCNC(=O)CO/N=C/C(=O)NCCCC[C@@H]2NC(=O)[C@@H](Cc3ccccc3)NC(=O)[C@H](CC(=O)O)NC(=O)CNC(=O)[C@H](CCCNC(=N)N)NC2=O)NC(=O)CNC(=O)[C@@H]2CCCN2C(=O)[C@H](CCCCNC(=O)CO/N=C/C(=O)NCCCC[C@@H]2NC(=O)[C@@H](Cc3ccccc3)NC(=O)[C@H](CC(=O)O)NC(=O)CNC(=O)[C@H](CCCNC(=N)N)NC2=O)NC1=O [copper-64 labelled]	biodistribution after PET	mouse, U-87 MG tumour xenograft, tumor	intravenous, 24 h		tissue uptake	2.25 ± 0.17 %ID/g
CCOC(=O)[C@H](CSC)NC(=O)c1ccc(C2CC2)c(Cc2ccc(F)cc2)n1		aqueous buffer with DMSO			kinetic solubility	< 0.1 µg/mL

Compound	test	test system	setting	how to read	endpoint	result
O=C(O)CCc1ccccc1			pH 7.4		logD	-0.49
C[C@]1(O)C[C@@](N)(c2ccc(-c3nc4n(c3-c3ccccc3)COc3ccncc3-4)cc2)C1		human, advanced or metastatic solid tumours	intermittent, dose escalation total		patients with grade ≥3 Dyspnea TEAE	14.3%
Clc1cc2c(cc1Cl)Oc1cc(Cl)c(Cl)cc1O2	RNA-Seq, refers to: Cyp1a1	Sprague-Dawley rat, female, liver	10 µg/kg	relative to: vehicle	mRNA fold change	680 fold
CC(=O)c1c(C)c2cnc(Nc3ccc(C4CCN(CCS(C)(=O)=O)CC4)cn3)nc2n(C2CCCC2)c1=O		human, dose-escalation trial, plasma	oral, 100 mg twice daily, day 21, multiple doses		Cmax	432 ng/mL
CO[C@H]1C[C@@H]2CC[C@@H](C)[C@@](O)(O2)C(=O)C(=O)N2CCCC[C@H]2C(=O)O[C@H]([C@H](C)C[C@@H]2CC[C@@H](OC(=O)NCCOCCOCCOCCOCCOCCOCCOCCOCCC(=O)N3CCc4cc(Cn5nc(-c6ccc7oc(N)nc7c6)c6c(N)ncnc65)ccc4C3)[C@H](OC)C2)C[C@@H](O)[C@H](C)/C=C(\C)[C@@H](O)[C@@H](OC)C(=O)[C@H](C)C[C@H](C)/C=C/C=C/C=C/1C	phase 1 dose escalation	advanced solid tumour patients	intravenous, 16 mg weekly, any grade		deaths due to TEAEs	0%
CCc1ccc(CC/C=C/c2ccc3c(c2)C(=O)CC3)cc1		Sprague-Dawley rat, female	oral, 120 mg/kg/day, 14 days		LDH serum activity	477 U/L
O=c1ccc2ccc3occc3c2o1	post-procedure stability	rat plasma	1000 ng/mL, 3 h, room temperature		accuracy	107%
Cn1cc(-c2nc(N[C@@H]3CCCC[C@@H]3N)c(F)c3c2C(=O)NC3)cn1	refers to: Subarachnoid haemorrhage	patients with relapsed or refractory AML	oral, dose not given, all doses		hemorrhagic adverse events	2 number of patients
COc1ccc(CCC2CCCC(CCc3ccc(OC)cc3)N2C[C@@H](O)CO)cc1.Cl (stereo in doubt)		rabbit Purkinje fibres	0.3 µM, cycle length 1 s	relative to: baseline	APD90 change	33.9 ± 4.8%
COc1ccc2nc3cc(Cl)ccc3c(Nc3cc(CN4CCCC4)c(O)c(CN4CCCC4)c3)c2n1		mouse, blood	intraperitoneal, 28 mg/kg		blood pH	7.58
C[C@@H](NC(=O)N1C(=O)[C@H](Cc2ccnc(N)c2)[C@H]1C(=O)O)C1CCCCC1		healthy Chinese adult volunteers	continuous intravenous infusion, dose not given, 5.0 days, CTCAE 5.0, all doses		serious adverse events	0%
O=C(O)CCCOc1ccc(F)cc1-c1cc(-c2ccccc2C(F)(F)F)n(-c2ccccc2)n1		Crl:CD(SD) rats, female, plasma	iv, 25 µg/kg, 14 days		activated partial thromboplastin time	17.6 s
COc1cc2c(Oc3ccc4[nH]c(C)cc4c3F)ccnc2cc1OCC1(N)CC1		paediatric recurrent refractory sarcoma	10 mg		grade 1 or 2 Diarrhoea	50%
Cc1c(COC(=O)[C@@H]2[C@H](/C=C(\Cl)C(F)(F)F)C2(C)C)cccc1-c1ccccc1 (racemic)	refers to: CYP2C19	human, age 6 months, recombinant human CYP2C19	0.1 µM		enzyme contribution to clearance	46.8%
NCCCC[C@@H]1NC(=O)[C@@H](Cc2c[nH]c3ccccc23)NC(=O)[C@H](c2ccccc2)NC(=O)[C@@H]2C[C@@H](OC(=O)NCCN)CN2C(=O)[C@H](Cc2ccccc2)NC(=O)[C@H](Cc2ccc(OCc3ccccc3)cc2)NC1=O		healthy volunteers, female	1950 µg twice daily, 8.0 h, post hoc		placebo-corrected QTcF change	0.1 ms
COc1ccc(-c2c(-c3ccc(C#N)c(F)c3)nc(N3CCC(N)CC3)n(C)c2=O)cc1F	refers to: Hematemesis	human patients	oral, dose not given, dose escalation, NG		serious adverse event incidence	2%
